Experimental data pooled from the literature.
Numbered parts are unrelated; each lists some results of a single study.

Study 1
Target: PABPC1L2, full length, GST fusion (mouse, UniProt A0ABA7IW68)
Technique: RNAcompete
Form: RNA
Sample: in vitro
Tested at: 20 nM
Notes: 7-mer, probes averaged, single round
Reference: mean of 7-mers
Direction: higher = stronger binding
Residues (chain): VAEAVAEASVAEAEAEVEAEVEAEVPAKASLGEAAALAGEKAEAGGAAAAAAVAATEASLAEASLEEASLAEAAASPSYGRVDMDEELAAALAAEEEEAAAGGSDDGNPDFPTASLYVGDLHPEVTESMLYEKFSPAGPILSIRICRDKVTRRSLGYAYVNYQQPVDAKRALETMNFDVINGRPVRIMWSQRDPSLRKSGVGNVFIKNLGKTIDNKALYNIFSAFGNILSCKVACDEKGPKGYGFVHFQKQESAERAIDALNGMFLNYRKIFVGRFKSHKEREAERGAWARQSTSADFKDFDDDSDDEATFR
Oligonucleotide	7-mer Z-score
GCACAGU	-0.173
GACCGAU	0.0478
UUUAAAG	0.479
GAGCGCG	-0.124
GGCACAU	0.0424
CUUGGUA	-0.0518
UCAUCCG	-0.383
CCACACC	-0.356
CGUCACG	-0.19
UGUAGAU	-0.121
UAGGUGA	0.0623
CCUCCGC	-0.456
GGGCCGA	0.186
CGCUGUC	-0.325
CCUACGA	-0.171
GGUAUUA	-0.157
AUGGAAC	0.202
GUUCCCG	-0.391
GAGCCAG	-0.0881
GUUAGCC	-0.383
CUUGAAG	-0.128
CCAGCUA	-0.242
GUACGUC	-0.318
CAUUUUC	-0.298

Study 2
Target: Prothrombin, mature alpha-thrombin (F2, Homo sapiens, UniProt P00734)
Technique: aptamer microarray, sandwich
Form: DNA with 2'F-ANA
Sample: in vitro
Tested at: 200 nM
Notes: whole 15-mer aptamer, many near background
With: Cy3 exosite-II aptamer, 400 nM
Direction: higher = stronger binding
Oligonucleotide: GGTTGGTGTGGTTGG
Modification	mean fluorescence intensity [a.u.]
2'F-ANA at 1 4 7 9 11 12	213
2'F-ANA at 2 3 4 5 6 8 9 11 14	53.9
2'F-ANA at 1 2 4 5 6 13 15	59.6
2'F-ANA at 2 7 8 10 11 13 14 15	79.7
2'F-ANA at 1 3 4 8 9 15	262
2'F-ANA at 3 5 7 9 10 12 13 15	112
2'F-ANA at 1 2 3 4 11 13	125
2'F-ANA at 2 3 4 5 7 11 13 15	63
2'F-ANA at 2 5 7 8 9 10 11 12 14	45.2
2'F-ANA at 3 4 7 9 10 11 12 13 15	271
2'F-ANA at 3 4 5 8 10 11 12	55.9
2'F-ANA at 1 2 3 6 7 9 10 15	65.4
2'F-ANA at 1 4 11 12 13 14	70.4
2'F-ANA at 1 3 5 7 10 11 12 14	44.8
2'F-ANA at 6 8 11 13 14 15	246
2'F-ANA at 2 3 6 7 9 12	1010
2'F-ANA at 2 5 8 11 12 13 14 15	47.4
2'F-ANA at 1 2 5 6 8 9 11 13 14 15	84.1
2'F-ANA at 1 2 3 4 5 6 7 9 10 11 12 14 15	51.9
2'F-ANA at 2 4 5 6 7 12 14 15	49.6
2'F-ANA at 3 4 6 9 10 12 13 14 15	161
2'F-ANA at 1 2 3 4 8 9 12 13 15	235
2'F-ANA at 1 3 9 10 12 15	114
2'F-ANA at 2 4 7 8 9 10 12 13	140
2'F-ANA at 1 3 4 6 9 10 11 13 14 15	61

Study 3
Target: RNA binding protein fox-1 homolog 2, RRM domain, GST-SBP tag (RBFOX2, Homo sapiens, UniProt O43251-10, residues 100-194)
Technique: RNA Bind-n-Seq
Form: RNA
Sample: in vitro
Tested at: 365 nM
Notes: natural RNA segment, single round, ends assumed
Reference: no-protein control
Direction: higher = stronger binding
Residues (chain): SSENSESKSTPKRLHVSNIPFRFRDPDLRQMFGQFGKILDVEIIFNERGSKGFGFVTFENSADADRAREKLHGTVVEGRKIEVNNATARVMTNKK
Oligonucleotide	RBNS enrichment (R)
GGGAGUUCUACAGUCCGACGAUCUCCUGAAACCCCUCUUGCCUCUCUUCCACGGAAGAGGGCCUGGGCCCCGUGGAGCCUCAGUGCCCGUUUGGCCUGCUGCUCUCGCUGACAAUAAAGAGCCCUUGCGUUGCUGGAAUUCUCGGGUGCCAA	0.776
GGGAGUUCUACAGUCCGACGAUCUGAACAGGGCUGUUAAAGGUCCAUGCUCAAAUACAAGGGAGACAACAGAUAGGACAGGACAGGGCUCUGGGUGCUGUCCAGGGACUAAGGAAUACAGCUAAAUAAACCAAUGGAAUUCUCGGGUGCCAA	0.421
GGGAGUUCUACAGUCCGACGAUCAGCCAUUUUACAUAGCACAUCAUUCCUCCUAUAGGGAUGAACUUUUUCCUGGCACGAAAAGUAGCCGCUCUGGUUGAAGCUUUGCUUAUUGUAACAGGCUUUUAUUUCCAUGGAAUUCUCGGGUGCCAA	0.286
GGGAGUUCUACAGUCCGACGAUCUGCCUCCAGUAAAGUGCCCUGGGAAGGGAGCUGGGCAGUGUUUGUGGACGAGAGACUGUAACGAUGGCUAAUAAAAGCUGCGGGUCUAGGUUUUUUUUUUUUUGUUUUGUUGGAAUUCUCGGGUGCCAA	1.44
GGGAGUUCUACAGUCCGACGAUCGCAGCUUUUUUCCUCAAAAGUAACCUGUUCCUCUUUGGAAUAGCACAUUUUAGGGGCAUGGUUAAUACCUGAGAUUUUUACUCAGUAAAUCCUGAUGGUUACUGUGUGUAUGGAAUUCUCGGGUGCCAA	0.243
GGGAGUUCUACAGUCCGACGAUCUCCACCUCAGUUCCUCAGGGCUGUUGGCCACCCUAUGACUAACUGGAAGAGGACACGCCAGAGCUUCAGUGAGGUUUCCGAGCCUCUCCCUGCCCAUCCUCACCACUGAGUGGAAUUCUCGGGUGCCAA	0.296
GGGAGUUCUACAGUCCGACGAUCAGUAUAGGGAAUGGGCACUGAGUCACUGAGAACACUUGCAGGGUUGACUUUGCAUAUAGGGCUCCCAUGCACCCACCGUUCCUCUGUUUUGAAACUCUAAUUGCAAUAACUGGAAUUCUCGGGUGCCAA	0.617
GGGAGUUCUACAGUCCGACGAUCGCCGGCGCGGGGAGGAAAGCAAAAUCCAACUAAUGGUAUAUAUUGUAGGGUACAGAAUAGAGCGUGUGCUGUUGAUAAUAUCUCUCACCCGGAUCCCUCCUCACUUGCCCUGGAAUUCUCGGGUGCCAA	0.593
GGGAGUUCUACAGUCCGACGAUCCGUGGCCUGCAGGUGCACCCUCCUCCUCGCCACAGUCAGUCAGUUCCCGUGACAGGAAACGACCUUGUGUUCUGAGGAGAGCGUGAAGGCUGUGCCUGCCCUGCCAGUGCUGGAAUUCUCGGGUGCCAA	0.297
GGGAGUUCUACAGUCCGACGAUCCACCUGCAUGGGCAAGUGGUUCGCCAGCCGCCAGGACCCCCUGCGCCCUGACACCUGGCUGGCCAGCCGCGUGCCCUGCCCCACCUGCCGCGCACGCUUCUGCAUCCUGGUGGAAUUCUCGGGUGCCAA	5.56
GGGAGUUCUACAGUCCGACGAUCGCAAGCUCCACCUCCCAGGUUCACGCCAUUCUCCUGCCUCAGCCUCCCUAGUAGUUGGGACUACAGGCGCCCGCCACCAUGCUCAGCUAAUUUUUUGUAUUUUUAGUAGAUGGAAUUCUCGGGUGCCAA	0.766
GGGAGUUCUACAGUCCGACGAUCAAGUUCUCUCCUGCUGUGGUCAGAGUUGCUUCGAUGUUGGCCAAGUGCUUUUCUUCUUGGGCUCCCUUCUGACCUGCAGGACAGUUUUCCUGGAGCCAUUUGGUAUGAGGUGGAAUUCUCGGGUGCCAA	0.533

Study 4
Target: Fragile X messenger ribonucleoprotein 1, C-terminal low-complexity region (Fmr1, Mus musculus, UniProt P35922)
Technique: RNA Bind-n-Seq
Form: RNA
Sample: in vitro
Tested at: 200 nM
Notes: whole 134-nt RNA, ends assumed
With: 150 mM LiCl
Reference: input library
Direction: higher = stronger binding
Each molecule: 7-deaza-guanosine replaces G
Oligonucleotide	log2 enrichment
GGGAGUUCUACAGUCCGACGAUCAAGUCCUGUGCUACACAUCGUAUGUACCGAAUCGGGAAAAGGGAAAAGGGGAAAAGGAAAGUAUUAUGUUACGCCGUUCGGAUCUGCACUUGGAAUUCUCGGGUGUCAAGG	0.00885
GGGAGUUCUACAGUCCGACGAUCCCUCAAGUCCUGUGCUACACAUCGUAUGUACCGAAUCGGUUGGUUGGUUGGGAAAGUAUUAUGUUACGCCGUUCGGAUCUGCACUUCCAGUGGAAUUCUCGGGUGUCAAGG	0.342
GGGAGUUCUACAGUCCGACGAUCUGGGAGGUGGAUUUUGUUUAUUUUUUUAGCUCAUUUCCAGGGGUCGGAAUUUUUUUUUAAUAUGUGUCAUGAAUAAAGUUGUUUUUGAAAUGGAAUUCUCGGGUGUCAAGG	-1.24
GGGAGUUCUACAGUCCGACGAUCUCCUCAAGUCCUGUGCUACACAUCGUAUGUACCGAAUCGGGAGGAGGGAGGGAAAGUAUUAUGUUACGCCGUUCGGAUCUGCACUUCCAGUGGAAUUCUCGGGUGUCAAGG	-0.997
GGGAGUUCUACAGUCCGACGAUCCUGUGCUACACAUCGUAUGUACCGAAUCGGGGAAAGGGGUUUUUUUGGGGAAAAAAAGGGGAAAGUAUUAUGUUACGCCGUUCGGAUCUGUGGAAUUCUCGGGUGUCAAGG	-0.325
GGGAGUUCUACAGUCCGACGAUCUGGCCCUGGUGGCAUGCGGGGAGGAAGAGGUGGCCUCAUGGAUCGUGGUGGUCCCGGUGGAAUGUUCAGACGUGGCCGUGGUGGAGACAGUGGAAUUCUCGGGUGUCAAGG	-0.557
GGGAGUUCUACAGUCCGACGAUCCUCAAGUCCUGUGCUACACAUCGUAUGUACCGAAUCGGGGAAGGAAGGAAGGGGAAAGUAUUAUGUUACGCCGUUCGGAUCUGCACUUCCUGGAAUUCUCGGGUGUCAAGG	-0.625
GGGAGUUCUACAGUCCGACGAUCGCAGGAAGUAAAAACAAAUAGAAAUGCUUCGGAUAGUGGCAGGGGUGGGGGUUGCUAAGGAAAGGGUGGGAUGGGAGUGGGUAAAGAGUUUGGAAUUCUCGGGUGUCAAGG	1.19
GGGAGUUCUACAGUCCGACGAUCAAGUCCUGUGCUACACAUCGUAUGUACCGAAUCGGCCCCGGGCCCCGGGCCCCGGGAAAGUAUUAUGUUACGCCGUUCGGAUCUGCACUUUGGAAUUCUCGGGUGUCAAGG	-2.6
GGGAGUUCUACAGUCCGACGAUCUCCUCAAGUCCUGUGCUACACAUCGUAUGUACCGAAUCGGGCGGCGGCGGGGAAAGUAUUAUGUUACGCCGUUCGGAUCUGCACUUCCAGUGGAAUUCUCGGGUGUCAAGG	0.963
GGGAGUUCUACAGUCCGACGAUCAGUCCUGUGCUACACAUCGUAUGUACCGAAUCGGGAAAAAGGGAAAAAAAGGGUGGGAAAGUAUUAUGUUACGCCGUUCGGAUCUGCACUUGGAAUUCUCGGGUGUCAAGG	-1.13
